{"data": "Measurements gathered from unrelated publications", "note": "Parts stem from different laboratories: compare values within a part only.", "UniProt P42681, sequence (whole entry, looked up)": "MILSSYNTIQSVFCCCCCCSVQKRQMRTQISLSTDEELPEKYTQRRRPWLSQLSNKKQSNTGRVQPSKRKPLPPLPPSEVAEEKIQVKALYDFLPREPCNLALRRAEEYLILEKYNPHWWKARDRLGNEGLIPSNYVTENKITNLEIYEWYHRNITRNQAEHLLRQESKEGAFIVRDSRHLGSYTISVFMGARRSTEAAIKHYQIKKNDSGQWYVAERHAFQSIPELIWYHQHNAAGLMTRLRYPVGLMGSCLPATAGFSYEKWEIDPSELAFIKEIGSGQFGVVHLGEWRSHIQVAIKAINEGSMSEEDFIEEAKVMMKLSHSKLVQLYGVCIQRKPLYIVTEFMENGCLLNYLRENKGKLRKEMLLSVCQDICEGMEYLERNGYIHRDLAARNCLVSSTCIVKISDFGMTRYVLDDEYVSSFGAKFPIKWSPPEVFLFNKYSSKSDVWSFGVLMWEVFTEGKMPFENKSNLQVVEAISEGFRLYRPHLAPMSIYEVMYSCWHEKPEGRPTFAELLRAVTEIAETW", "UniProt Q8N4C8, sequence (whole entry, looked up)": "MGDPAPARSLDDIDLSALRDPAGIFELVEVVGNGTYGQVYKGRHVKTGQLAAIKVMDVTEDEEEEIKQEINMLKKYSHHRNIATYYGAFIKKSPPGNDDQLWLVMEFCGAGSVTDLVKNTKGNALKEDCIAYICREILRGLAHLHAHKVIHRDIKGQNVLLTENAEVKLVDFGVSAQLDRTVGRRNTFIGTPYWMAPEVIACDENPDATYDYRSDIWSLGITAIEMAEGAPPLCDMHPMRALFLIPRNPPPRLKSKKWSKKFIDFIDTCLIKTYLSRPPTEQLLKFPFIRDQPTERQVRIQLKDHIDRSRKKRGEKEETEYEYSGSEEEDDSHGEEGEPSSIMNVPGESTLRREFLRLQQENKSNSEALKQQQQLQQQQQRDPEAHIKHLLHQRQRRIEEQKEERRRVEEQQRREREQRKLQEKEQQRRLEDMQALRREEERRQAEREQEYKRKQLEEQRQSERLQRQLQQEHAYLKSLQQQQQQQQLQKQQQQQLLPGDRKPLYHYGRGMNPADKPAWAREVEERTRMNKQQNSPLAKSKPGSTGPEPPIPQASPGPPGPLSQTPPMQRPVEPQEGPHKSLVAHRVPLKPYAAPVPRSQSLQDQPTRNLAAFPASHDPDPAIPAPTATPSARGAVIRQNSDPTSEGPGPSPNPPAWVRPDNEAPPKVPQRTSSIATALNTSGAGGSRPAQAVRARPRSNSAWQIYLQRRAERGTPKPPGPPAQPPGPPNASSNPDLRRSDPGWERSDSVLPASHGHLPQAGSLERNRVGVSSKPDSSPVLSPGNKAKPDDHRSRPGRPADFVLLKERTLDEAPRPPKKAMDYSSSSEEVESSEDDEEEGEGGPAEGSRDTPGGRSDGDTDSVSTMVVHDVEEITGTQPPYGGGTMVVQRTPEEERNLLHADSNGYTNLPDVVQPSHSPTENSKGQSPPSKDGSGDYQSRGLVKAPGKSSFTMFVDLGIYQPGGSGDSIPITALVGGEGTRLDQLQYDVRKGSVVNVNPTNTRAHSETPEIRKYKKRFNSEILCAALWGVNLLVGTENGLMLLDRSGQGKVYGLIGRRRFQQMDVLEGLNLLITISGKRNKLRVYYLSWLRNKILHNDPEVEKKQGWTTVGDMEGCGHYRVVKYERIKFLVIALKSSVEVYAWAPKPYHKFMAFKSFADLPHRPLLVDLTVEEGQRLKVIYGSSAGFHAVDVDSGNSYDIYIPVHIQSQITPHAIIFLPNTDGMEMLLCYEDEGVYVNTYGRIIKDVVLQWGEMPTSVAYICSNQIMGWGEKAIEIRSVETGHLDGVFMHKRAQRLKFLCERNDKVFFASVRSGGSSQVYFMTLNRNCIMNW", "UniProt P49761, sequence (whole entry, looked up)": "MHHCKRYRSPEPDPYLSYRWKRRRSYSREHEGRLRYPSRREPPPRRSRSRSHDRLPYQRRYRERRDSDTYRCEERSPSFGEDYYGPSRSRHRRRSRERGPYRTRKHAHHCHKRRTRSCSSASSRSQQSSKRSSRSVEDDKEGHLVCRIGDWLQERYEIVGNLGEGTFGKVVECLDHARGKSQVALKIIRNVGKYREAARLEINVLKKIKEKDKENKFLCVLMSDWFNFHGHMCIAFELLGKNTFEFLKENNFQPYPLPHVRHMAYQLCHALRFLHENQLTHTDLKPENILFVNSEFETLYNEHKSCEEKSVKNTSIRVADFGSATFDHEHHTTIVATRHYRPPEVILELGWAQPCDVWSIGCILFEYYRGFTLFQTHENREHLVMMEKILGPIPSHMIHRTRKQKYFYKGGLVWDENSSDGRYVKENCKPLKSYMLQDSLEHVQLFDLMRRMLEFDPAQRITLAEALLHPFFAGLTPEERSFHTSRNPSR", "UniProt Q86Y07, sequence (whole entry, looked up)": "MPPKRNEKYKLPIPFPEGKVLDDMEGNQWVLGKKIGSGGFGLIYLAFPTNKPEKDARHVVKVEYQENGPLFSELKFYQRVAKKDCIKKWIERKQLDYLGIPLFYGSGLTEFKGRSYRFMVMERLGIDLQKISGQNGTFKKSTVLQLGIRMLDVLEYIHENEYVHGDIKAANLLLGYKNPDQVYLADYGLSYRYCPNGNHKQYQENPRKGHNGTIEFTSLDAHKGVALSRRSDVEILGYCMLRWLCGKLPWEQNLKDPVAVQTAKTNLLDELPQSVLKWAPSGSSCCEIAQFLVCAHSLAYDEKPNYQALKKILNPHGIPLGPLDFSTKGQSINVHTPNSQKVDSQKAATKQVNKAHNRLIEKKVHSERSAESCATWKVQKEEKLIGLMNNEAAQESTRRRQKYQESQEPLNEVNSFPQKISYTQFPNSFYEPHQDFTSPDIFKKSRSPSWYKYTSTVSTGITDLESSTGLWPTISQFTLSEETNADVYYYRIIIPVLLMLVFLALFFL", "UniProt Q9H4B4, sequence (whole entry, looked up)": "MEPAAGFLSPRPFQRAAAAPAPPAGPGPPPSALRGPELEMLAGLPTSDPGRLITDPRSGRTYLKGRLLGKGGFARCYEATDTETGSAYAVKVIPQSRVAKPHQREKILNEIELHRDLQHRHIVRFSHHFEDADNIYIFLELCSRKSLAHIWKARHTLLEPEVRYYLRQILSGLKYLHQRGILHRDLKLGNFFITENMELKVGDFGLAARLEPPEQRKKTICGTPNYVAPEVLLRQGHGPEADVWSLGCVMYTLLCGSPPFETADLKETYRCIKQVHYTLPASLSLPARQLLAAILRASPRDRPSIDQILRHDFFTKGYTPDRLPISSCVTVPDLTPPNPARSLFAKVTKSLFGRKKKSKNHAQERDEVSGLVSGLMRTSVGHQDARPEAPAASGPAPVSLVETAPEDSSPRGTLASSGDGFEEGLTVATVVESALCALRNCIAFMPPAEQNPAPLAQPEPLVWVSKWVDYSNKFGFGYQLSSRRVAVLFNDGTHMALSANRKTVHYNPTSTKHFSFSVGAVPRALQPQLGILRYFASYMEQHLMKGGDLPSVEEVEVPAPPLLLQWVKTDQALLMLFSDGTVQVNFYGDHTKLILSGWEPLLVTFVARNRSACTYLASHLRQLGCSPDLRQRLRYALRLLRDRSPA", "UniProt Q8N568, sequence (whole entry, looked up)": "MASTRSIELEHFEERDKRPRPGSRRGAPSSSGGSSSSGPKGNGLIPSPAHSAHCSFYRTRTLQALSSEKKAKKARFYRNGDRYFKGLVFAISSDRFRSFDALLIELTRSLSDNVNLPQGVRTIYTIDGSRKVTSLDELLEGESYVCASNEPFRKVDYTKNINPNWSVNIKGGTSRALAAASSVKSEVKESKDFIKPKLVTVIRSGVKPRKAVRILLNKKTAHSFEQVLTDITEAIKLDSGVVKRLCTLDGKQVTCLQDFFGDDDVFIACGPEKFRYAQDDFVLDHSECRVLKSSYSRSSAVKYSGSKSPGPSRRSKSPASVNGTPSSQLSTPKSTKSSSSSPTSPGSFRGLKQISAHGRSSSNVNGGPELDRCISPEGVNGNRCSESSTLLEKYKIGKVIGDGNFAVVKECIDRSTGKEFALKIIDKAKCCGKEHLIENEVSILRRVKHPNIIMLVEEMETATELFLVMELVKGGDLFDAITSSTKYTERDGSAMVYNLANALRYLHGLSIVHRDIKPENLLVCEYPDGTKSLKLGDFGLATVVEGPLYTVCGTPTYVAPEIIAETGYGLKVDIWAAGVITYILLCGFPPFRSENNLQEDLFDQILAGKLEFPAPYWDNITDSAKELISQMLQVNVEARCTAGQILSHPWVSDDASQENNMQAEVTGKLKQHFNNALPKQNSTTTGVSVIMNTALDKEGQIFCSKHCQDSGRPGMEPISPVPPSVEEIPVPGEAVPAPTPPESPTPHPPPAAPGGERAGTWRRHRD", "UniProt Q00526, sequence (whole entry, looked up)": "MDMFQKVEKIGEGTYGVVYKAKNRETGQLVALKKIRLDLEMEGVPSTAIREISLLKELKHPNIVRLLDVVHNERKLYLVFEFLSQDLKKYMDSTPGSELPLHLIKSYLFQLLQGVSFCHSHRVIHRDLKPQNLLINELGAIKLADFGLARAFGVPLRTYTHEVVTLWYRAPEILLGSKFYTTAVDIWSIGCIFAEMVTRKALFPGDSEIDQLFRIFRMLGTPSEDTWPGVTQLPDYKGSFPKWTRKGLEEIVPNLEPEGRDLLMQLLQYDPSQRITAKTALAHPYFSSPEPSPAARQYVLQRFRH", "UniProt Q16566, sequence (whole entry, looked up)": "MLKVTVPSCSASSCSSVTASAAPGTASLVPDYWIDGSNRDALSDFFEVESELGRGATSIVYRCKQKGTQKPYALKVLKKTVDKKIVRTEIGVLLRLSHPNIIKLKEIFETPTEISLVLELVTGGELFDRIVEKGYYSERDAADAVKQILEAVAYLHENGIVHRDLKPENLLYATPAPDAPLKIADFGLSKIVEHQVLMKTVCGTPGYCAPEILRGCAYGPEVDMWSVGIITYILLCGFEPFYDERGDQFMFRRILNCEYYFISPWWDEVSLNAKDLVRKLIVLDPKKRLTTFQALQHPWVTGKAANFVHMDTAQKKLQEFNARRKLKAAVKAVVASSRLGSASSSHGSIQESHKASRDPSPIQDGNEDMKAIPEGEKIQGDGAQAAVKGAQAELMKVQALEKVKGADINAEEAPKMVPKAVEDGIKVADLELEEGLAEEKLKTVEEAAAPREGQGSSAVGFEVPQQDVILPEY"}
{"data": "Sample 1", "Structure (SMILES)": "CCS(=O)(=O)c1cc2cc(C[C@@](O)(CC(C)(C)c3ccc(F)cc3C(N)=O)C(F)(F)F)[nH]c2cn1", "read-out": "cell-free assay", "technique": "competition with immobilised ligand", "concentration": "1 µM"}
{"target": "SRPK1 (Homo sapiens, UniProt Q96SB4)", "remaining binding": "90%"}
{"target": "CDK3 (Homo sapiens, UniProt Q00526)", "remaining binding": "73%"}
{"target": "ERBB4 (Homo sapiens, UniProt Q15303)", "remaining binding": "100%"}
{"target": "CDKL5 (Homo sapiens, UniProt O76039)", "remaining binding": "77%"}
{"target": "PIK3CG (Homo sapiens, UniProt P48736)", "remaining binding": "78%"}
{"target": "VRK2 (Homo sapiens, UniProt Q86Y07)", "remaining binding": "80%"}
{"target": "MET (Homo sapiens, UniProt P08581, M1250T)", "remaining binding": "90%"}
{"data": "Sample 2", "target": "RNA binding protein fox-1 homolog 2, RRM domain, GST-SBP tag (RBFOX2, Homo sapiens, UniProt O43251-10, residues 100-194)", "technique": "RNA Bind-n-Seq", "molecule type": "RNA", "medium": "in vitro", "concentration": "365 nM", "setting": "natural RNA segment, single round, ends assumed", "baseline": "no-protein control", "reading": "higher = stronger binding", "shared flanks, not repeated": "GGGAGUUCUACAGUCCGACGAUC … UGGAAUUCUCGGGUGCCAA", "Target sequence (chain)": "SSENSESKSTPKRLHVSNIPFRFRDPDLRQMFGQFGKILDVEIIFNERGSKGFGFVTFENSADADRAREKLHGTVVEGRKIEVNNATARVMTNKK"}
{"Oligonucleotide": "GGCUAAUUAAGAAUGAUAUACUAUGUACACCCAAUAAGCUGUACUAGAAUGAAUAAAUUACUGAUAAGGUUACAAAUAGGUAAAUGUCACACUUCUGUUAAAAUGCAGGA", "RBNS enrichment (R)": 1.19}
{"Oligonucleotide": "AGUGGGAAAUUUUCAAAAGUUUCUCCUGCUGGAAAUAAGGUAUAAUUUGUAUUUUGCAGACAAUUCAGUAAAGUUACUGGCUUUCUUAGUGAUGCAGUGUCCGUGGUGCA", "RBNS enrichment (R)": 1.92}
{"Oligonucleotide": "UUUUUUUAAUUUAAGAUUUUUAAGCAGAUUAGGACAGGUGGUGGUUGUAUUGUAAGUGGCACUGGGAACCCAGGGUUUCCUUGGGAGUUGAGGCCUUCUUUAUUCCUGCU", "RBNS enrichment (R)": 0.644}
{"Oligonucleotide": "ACAGUCGUACUUUUAUAAAGCGGUAUUUGGGUGUUUUUUCCCUCGAAUAGGUACUUUUGGAAGUUCAAAGCAAGUGGCAAACUUUCAUAUAAACAUGUUAAAUGCAGGAU", "RBNS enrichment (R)": 0.292}
{"Oligonucleotide": "UGCUUCACUGAUCUUAAGUAUUAUCGGUUUGCUGUCUCAACUAGCAGUAGACAUUGAAACCAGAGAUUGUCUUCAGAAUACAUAUAAUCUGAAUAGUGUGCUGGCGGGAG", "RBNS enrichment (R)": 0.33}
{"Oligonucleotide": "GCUUCAAGAAUGUUGAUGAUGAUGAUAUAGAAUUGUGGCUUUAGUAGCACAGAGGAUGCCCCAACAAACUCAUGGCGUUGAAACCACACAGUUCUCAUUACUGUUAUUUA", "RBNS enrichment (R)": 0.898}
{"Oligonucleotide": "CCCCUGACAAUCCUGAGGCUUCAUCAGGAGCUAGAGCCAUUUAACAUUUCCUCUUUCCAAGACCAACCUACAAUUUUCCCUUGAUAACCAUAUAAAUUCUGAUUUAAGGU", "RBNS enrichment (R)": 0.739}
{"Oligonucleotide": "UUUGUAGGAGACUUGCCAGAGCCGGGCACAUUGAGCUGUGCAACGCCGUGGGCUGCGUCCUUUGGUCCUGUCCCCGCAGCCCUGGCAGGGGGCAUGCGGUCGGGCAGGGG", "RBNS enrichment (R)": 1.38}
{"data": "Sample 3", "cell line": "HaCaT", "concentration": "100 µM", "time": "18 h"}
{"SMILES": "Nc1ncnc2c1ncn2[C@@H]1O[C@H](CO)[C@@H](O)[C@H]1O", "viability [%]": 88.3}
{"SMILES": "Nc1nc(CC(=O)Nc2ccc(CCNC[C@H](O)c3ccccc3)cc2)cs1", "viability [%]": 100}
{"SMILES": "CC1=C(C(=O)OC(C)C)C(c2cccc([N+](=O)[O-])c2)C(C(=O)OC2CN(C(c3ccccc3)c3ccccc3)C2)=C(N)N1 (stereo not drawn)", "viability [%]": 20}
{"data": "Sample 4", "SMILES": "O=C(NC(NC(=S)Nc1ccc(F)c([N+](=O)[O-])c1)C(Cl)(Cl)Cl)C(c1ccccc1)c1ccccc1 (stereo not drawn)", "read-out": "enzyme activity", "mode": "inhibitor", "concentration": "0.5 µM", "baseline": "control"}
{"target": "CAMK4 (Homo sapiens, UniProt Q16566)", "remaining activity [%]": 98.5}
{"target": "CLK3 (Homo sapiens, UniProt P49761)", "remaining activity [%]": 124}
{"target": "PAK3 (Homo sapiens, UniProt O75914)", "remaining activity [%]": 91.9}
{"target": "PLK3 (Homo sapiens, UniProt Q9H4B4)", "remaining activity [%]": 94.4}
{"target": "MAP2K1 (Homo sapiens, UniProt Q02750)", "remaining activity [%]": 95.1}
{"target": "MINK1 (Homo sapiens, UniProt Q8N4C8)", "remaining activity [%]": 110}
{"target": "TXK (Homo sapiens, UniProt P42681)", "remaining activity [%]": 108}
{"target": "RPS6KA4 (Homo sapiens, UniProt O75676)", "remaining activity [%]": 92.7}
{"target": "MAPK1 (Homo sapiens, UniProt P28482)", "remaining activity [%]": 97.6}
{"target": "CDC42BPB (Homo sapiens, UniProt Q9Y5S2)", "remaining activity [%]": 97.2}
{"target": "MARK4 (Homo sapiens, UniProt Q96L34)", "remaining activity [%]": 104}
{"target": "DCLK2 (Homo sapiens, UniProt Q8N568)", "remaining activity [%]": 108}
